Results from different studies.
A part holds a random share of what one study measured.
Chain of UniProt Q9UIK4 (whole entry, looked up): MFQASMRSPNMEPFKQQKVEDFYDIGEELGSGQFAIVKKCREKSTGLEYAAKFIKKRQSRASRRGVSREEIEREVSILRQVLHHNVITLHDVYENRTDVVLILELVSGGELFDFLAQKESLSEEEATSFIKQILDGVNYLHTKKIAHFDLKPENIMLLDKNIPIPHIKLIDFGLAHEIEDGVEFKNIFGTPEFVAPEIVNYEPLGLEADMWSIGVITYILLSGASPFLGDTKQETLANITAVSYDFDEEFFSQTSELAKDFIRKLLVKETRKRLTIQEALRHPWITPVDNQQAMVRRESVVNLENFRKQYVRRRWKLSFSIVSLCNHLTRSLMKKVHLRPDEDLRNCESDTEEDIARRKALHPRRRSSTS
Chain of UniProt Q14164 (whole entry, looked up): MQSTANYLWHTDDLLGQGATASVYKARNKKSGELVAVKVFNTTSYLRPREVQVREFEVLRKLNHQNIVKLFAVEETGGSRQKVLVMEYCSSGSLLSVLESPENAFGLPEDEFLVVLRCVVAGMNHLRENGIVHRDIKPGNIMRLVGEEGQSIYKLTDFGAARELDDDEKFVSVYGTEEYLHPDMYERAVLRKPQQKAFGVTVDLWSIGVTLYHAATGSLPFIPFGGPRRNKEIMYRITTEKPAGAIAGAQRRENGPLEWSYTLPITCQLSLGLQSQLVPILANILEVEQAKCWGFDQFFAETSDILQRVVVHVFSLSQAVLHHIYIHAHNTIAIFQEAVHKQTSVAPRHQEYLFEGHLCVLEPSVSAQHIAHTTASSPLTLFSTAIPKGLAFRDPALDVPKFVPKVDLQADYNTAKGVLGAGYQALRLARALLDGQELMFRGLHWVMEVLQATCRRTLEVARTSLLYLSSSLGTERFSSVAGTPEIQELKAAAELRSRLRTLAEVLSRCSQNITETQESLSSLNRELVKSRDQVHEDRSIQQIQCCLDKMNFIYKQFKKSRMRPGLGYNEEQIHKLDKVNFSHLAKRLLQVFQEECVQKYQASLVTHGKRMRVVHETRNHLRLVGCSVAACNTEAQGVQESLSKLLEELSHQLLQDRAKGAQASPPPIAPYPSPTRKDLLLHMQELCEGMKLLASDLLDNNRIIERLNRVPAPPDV
Chain of UniProt O43353 (whole entry, looked up): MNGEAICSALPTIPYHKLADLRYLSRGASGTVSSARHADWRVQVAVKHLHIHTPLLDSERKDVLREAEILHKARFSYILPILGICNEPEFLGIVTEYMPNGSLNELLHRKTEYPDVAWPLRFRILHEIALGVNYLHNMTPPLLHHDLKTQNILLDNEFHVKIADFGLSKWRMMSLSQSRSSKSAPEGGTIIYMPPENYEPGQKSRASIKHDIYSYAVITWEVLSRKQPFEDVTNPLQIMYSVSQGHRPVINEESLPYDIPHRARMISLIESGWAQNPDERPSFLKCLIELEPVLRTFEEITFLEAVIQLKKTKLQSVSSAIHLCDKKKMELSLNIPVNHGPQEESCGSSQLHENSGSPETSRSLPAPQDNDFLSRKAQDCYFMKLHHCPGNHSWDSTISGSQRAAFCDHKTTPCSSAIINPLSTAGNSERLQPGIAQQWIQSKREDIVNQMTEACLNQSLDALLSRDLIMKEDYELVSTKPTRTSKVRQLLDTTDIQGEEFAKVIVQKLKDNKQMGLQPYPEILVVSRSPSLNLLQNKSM
Chain of UniProt P46091 (whole entry, looked up): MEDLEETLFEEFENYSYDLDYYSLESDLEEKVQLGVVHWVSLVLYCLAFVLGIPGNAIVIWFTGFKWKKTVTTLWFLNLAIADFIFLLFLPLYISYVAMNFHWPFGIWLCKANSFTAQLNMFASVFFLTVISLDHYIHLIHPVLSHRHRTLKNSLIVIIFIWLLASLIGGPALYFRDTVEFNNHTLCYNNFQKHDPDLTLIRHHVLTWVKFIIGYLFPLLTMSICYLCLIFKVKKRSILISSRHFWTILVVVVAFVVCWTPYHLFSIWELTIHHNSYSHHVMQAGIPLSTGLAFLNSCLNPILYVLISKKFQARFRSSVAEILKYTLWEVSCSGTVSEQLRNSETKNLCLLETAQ
Chain of UniProt P42680 (whole entry, looked up): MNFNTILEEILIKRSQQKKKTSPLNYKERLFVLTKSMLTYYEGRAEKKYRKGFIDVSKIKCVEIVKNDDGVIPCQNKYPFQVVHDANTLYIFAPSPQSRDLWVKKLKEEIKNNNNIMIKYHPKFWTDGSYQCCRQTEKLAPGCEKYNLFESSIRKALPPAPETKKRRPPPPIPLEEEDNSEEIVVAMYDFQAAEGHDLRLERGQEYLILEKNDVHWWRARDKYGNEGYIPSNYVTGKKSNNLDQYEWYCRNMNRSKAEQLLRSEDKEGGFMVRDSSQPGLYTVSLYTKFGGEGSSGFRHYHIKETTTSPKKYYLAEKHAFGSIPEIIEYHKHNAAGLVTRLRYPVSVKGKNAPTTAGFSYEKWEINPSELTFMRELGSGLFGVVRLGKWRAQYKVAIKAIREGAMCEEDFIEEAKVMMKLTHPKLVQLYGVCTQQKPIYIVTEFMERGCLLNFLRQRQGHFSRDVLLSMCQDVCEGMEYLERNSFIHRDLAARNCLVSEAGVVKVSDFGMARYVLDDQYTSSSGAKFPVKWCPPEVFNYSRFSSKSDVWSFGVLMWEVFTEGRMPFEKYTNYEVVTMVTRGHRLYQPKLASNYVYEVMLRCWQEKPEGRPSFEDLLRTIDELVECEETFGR
Chain of UniProt P36897 (whole entry, looked up): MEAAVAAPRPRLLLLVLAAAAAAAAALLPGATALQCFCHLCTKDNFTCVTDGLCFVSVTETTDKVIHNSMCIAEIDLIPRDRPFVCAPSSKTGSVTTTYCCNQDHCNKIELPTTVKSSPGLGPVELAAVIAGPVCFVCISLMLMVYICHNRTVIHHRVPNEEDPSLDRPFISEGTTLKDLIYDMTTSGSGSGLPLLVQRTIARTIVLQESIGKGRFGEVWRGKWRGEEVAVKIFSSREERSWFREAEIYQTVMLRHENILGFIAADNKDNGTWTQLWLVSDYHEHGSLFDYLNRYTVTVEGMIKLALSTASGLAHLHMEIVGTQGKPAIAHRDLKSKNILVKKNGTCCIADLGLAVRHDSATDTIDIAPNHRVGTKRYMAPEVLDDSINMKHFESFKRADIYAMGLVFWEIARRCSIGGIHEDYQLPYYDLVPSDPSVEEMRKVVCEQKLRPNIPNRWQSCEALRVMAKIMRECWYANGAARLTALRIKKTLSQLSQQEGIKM
Chain of UniProt Q96RR4 (whole entry, looked up): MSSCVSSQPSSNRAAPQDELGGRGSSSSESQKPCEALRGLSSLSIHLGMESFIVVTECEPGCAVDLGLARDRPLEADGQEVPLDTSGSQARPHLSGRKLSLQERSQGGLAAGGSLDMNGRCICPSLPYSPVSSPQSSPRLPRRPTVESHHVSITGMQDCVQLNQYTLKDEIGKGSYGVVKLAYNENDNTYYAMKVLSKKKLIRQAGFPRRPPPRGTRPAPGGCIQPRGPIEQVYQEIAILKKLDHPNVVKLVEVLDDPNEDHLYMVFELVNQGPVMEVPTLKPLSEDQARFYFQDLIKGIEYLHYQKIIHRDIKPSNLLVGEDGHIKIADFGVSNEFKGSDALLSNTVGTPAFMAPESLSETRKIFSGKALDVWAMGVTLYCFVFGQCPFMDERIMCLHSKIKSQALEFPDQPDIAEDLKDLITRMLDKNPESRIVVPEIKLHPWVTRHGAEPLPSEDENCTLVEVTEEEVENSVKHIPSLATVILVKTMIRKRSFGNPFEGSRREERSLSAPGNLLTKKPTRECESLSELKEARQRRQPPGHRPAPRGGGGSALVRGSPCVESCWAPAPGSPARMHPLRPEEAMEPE
Chain of UniProt O14920 (whole entry, looked up): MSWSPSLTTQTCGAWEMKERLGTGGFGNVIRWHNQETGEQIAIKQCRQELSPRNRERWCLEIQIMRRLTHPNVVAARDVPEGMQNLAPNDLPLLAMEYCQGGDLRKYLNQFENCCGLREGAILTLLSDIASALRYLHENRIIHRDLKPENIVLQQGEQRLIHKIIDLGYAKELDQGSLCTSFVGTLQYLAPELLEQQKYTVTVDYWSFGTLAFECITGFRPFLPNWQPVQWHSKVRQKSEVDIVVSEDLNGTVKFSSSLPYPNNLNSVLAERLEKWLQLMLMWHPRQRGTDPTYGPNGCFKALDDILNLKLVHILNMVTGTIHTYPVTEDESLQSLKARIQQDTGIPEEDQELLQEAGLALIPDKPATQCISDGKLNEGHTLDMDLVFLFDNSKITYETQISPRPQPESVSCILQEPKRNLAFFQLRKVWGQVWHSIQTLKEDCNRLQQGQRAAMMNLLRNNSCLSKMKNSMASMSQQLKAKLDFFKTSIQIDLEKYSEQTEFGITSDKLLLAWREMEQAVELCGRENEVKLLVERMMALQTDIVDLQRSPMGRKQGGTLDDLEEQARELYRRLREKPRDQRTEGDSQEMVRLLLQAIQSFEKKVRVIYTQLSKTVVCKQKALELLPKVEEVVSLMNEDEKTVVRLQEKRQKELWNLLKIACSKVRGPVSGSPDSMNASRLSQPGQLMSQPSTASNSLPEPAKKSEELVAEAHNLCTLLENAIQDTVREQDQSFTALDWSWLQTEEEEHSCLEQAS
Chain of UniProt P11802 (whole entry, looked up): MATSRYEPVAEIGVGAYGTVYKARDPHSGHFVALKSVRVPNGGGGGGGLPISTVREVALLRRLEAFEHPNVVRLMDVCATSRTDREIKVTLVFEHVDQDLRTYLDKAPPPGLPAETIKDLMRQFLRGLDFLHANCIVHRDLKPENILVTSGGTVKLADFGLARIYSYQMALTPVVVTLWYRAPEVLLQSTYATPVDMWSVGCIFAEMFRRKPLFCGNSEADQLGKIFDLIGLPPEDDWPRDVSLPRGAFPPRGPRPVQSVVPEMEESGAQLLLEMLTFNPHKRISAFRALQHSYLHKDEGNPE

Set 1
Host: mouse
Sample: microsomes or S9
Tested at: 2 µM
Time: 0.5 h
Compound	remaining compound
O=C(NC1CCN(Cc2ccc3c(c2)OCO3)CC1)c1cc2ccc3ccccc3c2o1	1.77%
Cn1ncnc1CN(Cc1ccc2c(c1)OCO2)C1CCCCC1	0.00969%
COc1ccc(CCN2CCC(NC(=O)c3cc4cc(Br)ccc4o3)CC2)cc1	23.1%
CC(C)C(=O)N1CCN(c2cnc(N)c(-c3nc4ccccc4o3)c2)CC1	42.1%
CSc1nnc(CNC(=O)OC(C)(C)C)n1-c1ccccc1	9.03%

Set 2
SMILES: CCN(c1nc(N)c(C(=O)N=C(N)N)nc1Cl)C(C)C
Effect on: β-arrestin recruitment
Mode: agonist
Method: PRESTO-Tango
Tested at: 10 µM
Reference: untreated
target	fold over basal
CXCR4 (Homo sapiens, UniProt P61073)	0.69
LPAR4 (Homo sapiens, UniProt Q99677)	0.72
Probable G-protein coupled receptor 152 (GPR152, Homo sapiens, UniProt Q8TDT2)	0.8
CMKLR2 (Homo sapiens, UniProt P46091)	0.77
G-protein coupled receptor 157 (GPR157, Homo sapiens, UniProt Q5UAW9)	0.81
HTR6 (Homo sapiens, UniProt P50406)	0.24
SSTR1 (Homo sapiens, UniProt P30872)	4.62

Set 3
Structure (SMILES): CC1=C(C#N)[C@@H](c2ccc3[nH]nc(C)c3c2)C(C#N)=C(c2ccc(Cl)cc2)N1
Method: competition with immobilised ligand
Tested at: 1 µM
target	effect on	remaining binding [%]
TEC (Homo sapiens, UniProt P42680)	binding	100
CSNK1G1 (Homo sapiens, UniProt Q9HCP0)	cell-free assay	100
EPHB6 (Homo sapiens, UniProt O15197)	cell-free assay	100
DAPK2 (Homo sapiens, UniProt Q9UIK4)	cell-free assay	100
RIPK2 (Homo sapiens, UniProt O43353)	cell-free assay	92
RET (Homo sapiens, UniProt P07949, V804M)	cell-free assay	73.8

Set 4
Cell line: HaCaT
Tested at: 100 µM
Time: 18 h
SMILES	viability [%]
CCOC(=O)c1c(C)n(C)c2ccc(O)cc12	54.7
COc1c2occc2c(OC)c2c(=O)cc(C)oc12	59.2
Nc1c2c(nc3ccccc13)CCCC2	75.4
CCC(=O)O[C@]1(C(=O)CCl)[C@@H](C)C[C@H]2[C@@H]3CCC4=CC(=O)C=C[C@]4(C)[C@@]3(F)[C@@H](O)C[C@@]21C	72.4
CO[C@H]1C[C@@H]2CC[C@@H](C)[C@@](O)(O2)C(=O)C(=O)N2CCCC[C@H]2C(=O)O[C@H]([C@H](C)C[C@@H]2CC[C@@H](OC(=O)C(C)(CO)CO)[C@H](OC)C2)CC(=O)[C@H](C)/C=C(\C)[C@@H](O)[C@@H](OC)C(=O)[C@H](C)C[C@H](C)/C=C/C=C/C=C/1C	58.3
CO[C@H]1C[C@@H]2CC[C@@H](C)[C@@](O)(O2)C(=O)C(=O)N2CCCC[C@H]2C(=O)O[C@H]([C@H](C)C[C@@H]2CC[C@@H](OCCO)[C@H](OC)C2)CC(=O)[C@H](C)/C=C(\C)[C@@H](O)[C@@H](OC)C(=O)[C@H](C)C[C@H](C)/C=C/C=C/C=C/1C	29.6

Set 5
SMILES: c1ccc2c(-c3ccncc3)c[nH]c2c1
Effect on: enzyme activity
Mode: inhibitor
Tested at: 0.5 µM
Reference: control
target	remaining activity [%]
CAMKK2 (Homo sapiens, UniProt Q96RR4)	113
TGFBR1 (Homo sapiens, UniProt P36897)	103
Tyrosine-protein kinase Lyn, isoform B (LYN, Homo sapiens, UniProt P07948)	100
MAP3K3 (Homo sapiens, UniProt Q99759)	103
CAMK2D (Homo sapiens, UniProt Q13557)	103
DAPK2 (Homo sapiens, UniProt Q9UIK4)	108
Cyclin-dependent kinase 5, with p25 (CDK5, Homo sapiens, UniProt Q00535)	92
GRK3 (Homo sapiens, UniProt P35626)	95.4
cGMP-dependent protein kinase 1, isoform beta (PRKG1, Homo sapiens, UniProt Q13976)	77.7
OXSR1 (Homo sapiens, UniProt O95747)	97.2
IKBKB (Homo sapiens, UniProt O14920)	102
PRKCA (Homo sapiens, UniProt P17252)	97.4
MAPK9 (Homo sapiens, UniProt P45984)	103
NEK2 (Homo sapiens, UniProt P51955)	106
PRKACA (Homo sapiens, UniProt P17612)	91.6
TGFBR2 (Homo sapiens, UniProt P37173)	119
STK11 (Homo sapiens, UniProt Q15831)	90.7
STK39 (Homo sapiens, UniProt Q9UEW8)	99.8
CHEK2 (Homo sapiens, UniProt O96017)	99.3
Protein kinase C beta type, isoform beta-I (PRKCB, Homo sapiens, UniProt P05771)	95.1
Cyclin-dependent kinase 4, with cyclin D1 (CDK4, Homo sapiens, UniProt P11802)	112
STK10 (Homo sapiens, UniProt O94804)	93.7
DAPK1 (Homo sapiens, UniProt P53355)	97.7
IKBKE (Homo sapiens, UniProt Q14164)	96.4

A few entries again (set 1):
Compound	remaining compound
O=C(NC1CCN(Cc2ccc3c(c2)OCO3)CC1)c1cc2ccc3ccccc3c2o1	1.77%
Cn1ncnc1CN(Cc1ccc2c(c1)OCO2)C1CCCCC1	0.00969%
COc1ccc(CCN2CCC(NC(=O)c3cc4cc(Br)ccc4o3)CC2)cc1	23.1%
CC(C)C(=O)N1CCN(c2cnc(N)c(-c3nc4ccccc4o3)c2)CC1	42.1%
CSc1nnc(CNC(=O)OC(C)(C)C)n1-c1ccccc1	9.03%
